Published values collected from several papers.
Cell line: NCI/ADR-RES

For `C#C[C@@]1(O)[C@@H](CO)O[C@@H](n2cc(Br)c3c(N)ncnc32)[C@@H]1O`, the TGI was 1.02 µM (cell growth, SRB).
For `CCCCN1CCN(c2ccc3[nH]c(-c4ccc5[nH]c(-c6ccc(C(F)(F)F)cc6)nc5c4)nc3c2)CC1`, the growth percent was 54.8% (cell growth, NCI-60 SRB; 10 µM, 48 h).
`Cc1cc(C)n(C(=S)[S][Au][PH](CCCCCC[PH]([Au][S]C(=S)n2nc(C)cc2C)(c2ccccc2)c2ccccc2)(c2ccccc2)c2ccccc2)n1` gave a log TGI of greater than -4 log10 M (cell growth, NCI-60 screen; breast cancer).
For `O=C1NC(=NCc2cccs2)S/C1=C\c1ccc2ncccc2c1`, the IC50 was 3.67 µM (cytotoxicity, MTS; NCI60 panel; ovarian cancer).
With `Cn1cncc1C1=CN(c2ncnc3[nH]cnc23)CCS1` the GI50 was 56.2 µM (ovarian cancer cell line).
`CCCCN1CCN(c2ccc3nc(-c4ccc5nc(-c6cc(OC)ccc6OC)[nH]c5c4)[nH]c3c2)CC1` gave a growth percent of 105% (cell growth, NCI-60 SRB; 10 µM, 48 h).
For `S=C([S][Au-][P+](CCCCCC[P+]([Au-][S]C(=S)n1cccn1)(c1ccccc1)c1ccccc1)(c1ccccc1)c1ccccc1)n1cccn1`, the log TGI was greater than -4 log10 M (cell growth, NCI-60 screen; breast cancer).
With `C#C[C@@]1(O)[C@@H](CO)O[C@@H](n2ccc3c(N)ncnc32)[C@@H]1O` the TGI was 7.28 µM (cell growth, SRB).
With `O=C1NCCc2[nH]c(-c3ccncc3)cc21` the IC50 was 1.44 µM (cytotoxicity, MTS; NCI60 panel; ovarian cancer).
`CCCN1CCN(c2ccc3[nH]c(-c4ccc5[nH]c(-c6ccc(C(F)(F)F)cc6)nc5c4)nc3c2)CC1` has a growth percent of 74% (cell growth, NCI-60 SRB; 10 µM, 48 h).
For `CCN(CC)c1ccc(C=NNC(=O)CSc2nc3ccccc3c(=O)n2Cc2ccc(S(N)(=O)=O)cc2)c(O)c1`, the TGI was greater than 100 µM (cell growth; NCI five-dose screen).

Repeated from above:
With `Cn1cncc1C1=CN(c2ncnc3[nH]cnc23)CCS1` the GI50 was 56.2 µM (ovarian cancer cell line).
